# Measurements collected from several papers.
# Numbered parts are unrelated; each lists some results of a single study.
# UniProt P48736, sequence (whole entry, looked up): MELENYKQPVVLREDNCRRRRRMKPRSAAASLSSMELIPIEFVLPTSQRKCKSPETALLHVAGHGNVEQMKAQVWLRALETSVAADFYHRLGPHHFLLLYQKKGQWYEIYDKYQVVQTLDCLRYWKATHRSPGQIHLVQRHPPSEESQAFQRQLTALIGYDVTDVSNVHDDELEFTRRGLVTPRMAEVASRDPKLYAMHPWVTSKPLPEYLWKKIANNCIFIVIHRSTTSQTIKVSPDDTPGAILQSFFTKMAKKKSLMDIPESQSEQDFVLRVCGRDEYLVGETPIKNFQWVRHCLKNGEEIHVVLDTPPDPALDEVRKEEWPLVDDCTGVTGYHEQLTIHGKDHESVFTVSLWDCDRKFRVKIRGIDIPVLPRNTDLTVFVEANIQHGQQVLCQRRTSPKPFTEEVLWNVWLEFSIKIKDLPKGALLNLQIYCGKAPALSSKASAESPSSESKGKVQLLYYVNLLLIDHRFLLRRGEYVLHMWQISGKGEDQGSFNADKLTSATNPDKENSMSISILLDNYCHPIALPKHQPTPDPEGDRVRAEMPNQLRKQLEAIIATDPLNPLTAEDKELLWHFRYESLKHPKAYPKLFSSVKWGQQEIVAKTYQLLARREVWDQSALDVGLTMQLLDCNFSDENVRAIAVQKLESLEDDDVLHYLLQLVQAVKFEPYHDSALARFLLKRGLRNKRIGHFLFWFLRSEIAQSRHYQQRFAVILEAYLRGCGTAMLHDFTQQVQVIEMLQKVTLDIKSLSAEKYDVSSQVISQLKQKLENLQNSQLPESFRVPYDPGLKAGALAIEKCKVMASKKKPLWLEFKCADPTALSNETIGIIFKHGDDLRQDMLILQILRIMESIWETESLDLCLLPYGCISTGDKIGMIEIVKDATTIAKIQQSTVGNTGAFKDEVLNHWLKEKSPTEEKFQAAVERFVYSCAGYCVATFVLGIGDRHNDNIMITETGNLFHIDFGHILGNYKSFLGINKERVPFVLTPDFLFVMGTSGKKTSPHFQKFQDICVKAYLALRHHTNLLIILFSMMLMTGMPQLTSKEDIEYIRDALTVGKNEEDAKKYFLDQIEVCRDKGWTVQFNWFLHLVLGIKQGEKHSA
# UniProt P07949, sequence (whole entry, unmodified, looked up): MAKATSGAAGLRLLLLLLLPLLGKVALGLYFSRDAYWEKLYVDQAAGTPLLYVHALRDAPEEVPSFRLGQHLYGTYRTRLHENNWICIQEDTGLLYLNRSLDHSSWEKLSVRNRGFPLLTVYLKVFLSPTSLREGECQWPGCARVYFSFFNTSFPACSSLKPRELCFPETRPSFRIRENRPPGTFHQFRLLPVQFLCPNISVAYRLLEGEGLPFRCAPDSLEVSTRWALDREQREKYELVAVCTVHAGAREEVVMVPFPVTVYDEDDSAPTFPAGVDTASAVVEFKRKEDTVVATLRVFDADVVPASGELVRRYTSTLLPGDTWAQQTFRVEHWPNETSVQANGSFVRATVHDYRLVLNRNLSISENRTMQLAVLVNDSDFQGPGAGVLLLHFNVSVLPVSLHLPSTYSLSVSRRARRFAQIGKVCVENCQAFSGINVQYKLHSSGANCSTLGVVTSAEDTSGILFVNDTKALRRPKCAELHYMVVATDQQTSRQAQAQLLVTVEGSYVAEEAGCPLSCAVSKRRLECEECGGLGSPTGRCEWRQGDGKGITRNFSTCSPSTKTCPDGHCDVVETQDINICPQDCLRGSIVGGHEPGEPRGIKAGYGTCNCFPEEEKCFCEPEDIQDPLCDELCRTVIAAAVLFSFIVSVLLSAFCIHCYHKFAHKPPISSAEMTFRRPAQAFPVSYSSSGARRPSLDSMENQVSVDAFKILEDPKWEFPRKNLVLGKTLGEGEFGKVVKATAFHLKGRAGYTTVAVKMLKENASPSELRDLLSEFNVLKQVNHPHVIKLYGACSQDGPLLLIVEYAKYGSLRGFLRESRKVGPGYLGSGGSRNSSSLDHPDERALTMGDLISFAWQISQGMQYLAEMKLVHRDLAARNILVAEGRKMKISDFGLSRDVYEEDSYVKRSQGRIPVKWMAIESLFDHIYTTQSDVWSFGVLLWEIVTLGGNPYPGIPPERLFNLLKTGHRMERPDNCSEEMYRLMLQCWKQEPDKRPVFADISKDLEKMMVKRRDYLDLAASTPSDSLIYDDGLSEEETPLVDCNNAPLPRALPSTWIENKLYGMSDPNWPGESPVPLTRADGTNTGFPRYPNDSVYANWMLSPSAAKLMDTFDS
# UniProt Q8N5S9, sequence (whole entry, looked up): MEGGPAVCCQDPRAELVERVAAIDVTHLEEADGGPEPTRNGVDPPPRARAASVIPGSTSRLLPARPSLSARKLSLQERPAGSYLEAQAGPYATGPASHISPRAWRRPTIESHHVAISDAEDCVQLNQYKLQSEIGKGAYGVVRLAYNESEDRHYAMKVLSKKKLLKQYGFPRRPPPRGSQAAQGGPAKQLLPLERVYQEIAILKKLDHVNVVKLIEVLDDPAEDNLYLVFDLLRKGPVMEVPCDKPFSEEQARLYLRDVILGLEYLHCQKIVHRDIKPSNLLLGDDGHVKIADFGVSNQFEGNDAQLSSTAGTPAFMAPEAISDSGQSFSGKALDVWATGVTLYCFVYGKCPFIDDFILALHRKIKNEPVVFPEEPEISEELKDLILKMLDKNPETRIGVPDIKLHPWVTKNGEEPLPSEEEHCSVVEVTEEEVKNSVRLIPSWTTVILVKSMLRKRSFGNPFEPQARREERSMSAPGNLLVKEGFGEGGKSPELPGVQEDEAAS

# Sample 1
# Host: human
# Sample: microsomes or S9
# Concentration: 2 µM
# Time: 0.5 h
Structure (SMILES),remaining compound [%]
CCc1cc2c3c([nH]c2cc1S(=O)(=O)NCCCN1CCOCC1)CC(C)(C)CC3=O,42.1
Cc1ccc(N(CCO)C2=NS(=O)(=O)c3ccccc32)cc1,29.1
Cc1nc(O)[nH]c(=O)c1S(=O)(=O)Nc1ccccc1C(=O)NCCc1ccccc1,81.7

# Sample 2
# Structure (SMILES): O=C(NS(=O)(=O)c1ccc(NCC2CCOCC2)c([N+](=O)[O-])c1)c1ccc(N2CCN(Cc3ccc(C(F)(F)F)cc3-c3ccc(Cl)cc3)CC2)cc1Oc1cnc2[nH]ccc2c1
# Effect on: cell-free assay
# Method: competition with immobilised ligand
# Concentration: 1 µM
target,remaining binding
"Calcium/calmodulin-dependent protein kinase kinase 1 (CAMKK1, Homo sapiens, UniProt Q8N5S9)",92%
"Proto-oncogene tyrosine-protein kinase receptor Ret (RET, Homo sapiens, UniProt P07949, V804L)",100%
"Phosphatidylinositol 4,5-bisphosphate 3-kinase catalytic subunit gamma isoform (PIK3CG, Homo sapiens, UniProt P48736)",86%

# Sample 3
# Target: Fragile X messenger ribonucleoprotein 1, C-terminal low-complexity region (Fmr1, Mus musculus, UniProt P35922)
# Method: RNA Bind-n-Seq
# Molecule type: RNA
# Sample: in vitro
# Concentration: 200 nM
# Notes: whole 134-nt RNA, ends assumed
# Together with: 150 mM LiCl
# Reference: input library
# Reading: higher = stronger binding
# Each molecule: 7-deaza-guanosine replaces G
# Constant ends, left off below: GGGAGUUCUACAGUCCGACGAUC … UGGAAUUCUCGGGUGUCAAGG
Strand,log2 enrichment
CACAGACAACACGCACCCACACAGACACAGAGGGAAGGGGUUGGGAUGGGGACAGGGUGCACAGCUGGGCGGGGUAGGACCCCAGCCCCU,-0.431
UCCUGUGCUACACAUCGUAUGUACCGAAUCGGCCCCCCGGGGCCCCCCGGGCCCCCCGGGAAAGUAUUAUGUUACGCCGUUCGGAUCUGC,-3.34
UGUUUAAUAAACGUGAAGAUGUCUCGCAGUCCUGAUGCGAAGGAAGACCCUGUGGAGUGCCCUCUUUGCAUGGAGCCCUUGGAGAUAGAU,-1.62
CACAGACAACACGCACCCACACAGACACAGAGGGAAGGGGUUGGGAUGGGGACAGGGUGCACAGUAGGGCGGGGUAGGACCCCAGCCCCU,-0.0637
UGGACAGGUUGCUGGACCCCGCCAACAGAGCCCACCUGGGCCUGGAGGAGCAGCUGAGAGAGCUGCUGGACAUGCUCGACCUCACCUGCG,-1.31
UAACUUUAGAGGAGGAUCUGAUGGAUAUGGCAGUGGACGUGGAUUUGGGGAUGGCUAUAAUGGGUAUGGAGGAGGACCUGGAGGUGACAA,0.748
AAGUCCUGUGCUACACAUCGUAUGUACCGAAUCGGUUUUUUUGGUUUUUGGUUUGGAAAGUAUUAUGUUACGCCGUUCGGAUCUGCACUU,-2.71
UGGAGGAGCCAUAGAAUAUUAAGGAUGAAUUCAGGAAGGCCUGAGACCAUGGAAAACUUGCCUGCUCUCUACACUAUUUUCCAAGGAGAG,0.182

# Sample 4
# Target: RNA binding protein fox-1 homolog 2, RRM domain, GST-SBP tag (RBFOX2, Homo sapiens, UniProt O43251-10, residues 100-194)
# Method: RNA Bind-n-Seq
# Molecule type: RNA
# Sample: in vitro
# Concentration: 365 nM
# Notes: natural RNA segment, single round, ends assumed
# Reference: no-protein control
# Reading: higher = stronger binding
# Constant ends, left off below: GGGAGUUCUACAGUCCGACGAUC … UGGAAUUCUCGGGUGCCAA
# Residues (chain): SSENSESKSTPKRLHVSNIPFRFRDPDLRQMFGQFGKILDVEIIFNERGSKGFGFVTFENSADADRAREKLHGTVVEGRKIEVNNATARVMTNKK
Strand,RBNS enrichment (R)
GCCUGCCCUUUCCUGUCCCUCCCUCGAAUUCUCUCUCCCCGUAAGUGAUGCUGGAAAAGUCAUAGGACUGGCAAAGCAACUGUUUAAACCCUUUGUAACCGGGGCCUUGC,2.84
CUUAGUUGGUGCCCAUUCUGCACCAGUUGUUUUACCCCUGCCGAUAACCAGCAGUCAGAGAUUCUUUUUUAAUCCUUGGAGACAGGGAAAGGGACAGAUAGCUUUCCAAG,0.325
CAGCUGGGGGGCCAACUGAGGCCCUGACCCUCUUCUCCUGUCCCAUCUUCUGAGAGGGCUUCUCAGCCUGGAAACUAUGGAAACAGCAUCAAAGAGAGAAAAGAAUGUGG,2.02
GGUUGUGCUGGGCAGCAUUUGUACAUACAUGCGCGCAUUUAGUUUGCAGUUAAUUCCUGCUGCGCUGCCCACAGUGGCUUCCUCCCUUCAGUUUGUCCCUGAGACCCCUG,0.216
AAGGUCCACGCGAGCUAUCCCCGUGGCGUUACGAAUGCAGCCAGCGCCCGGCGUUUGUGCAGGGGUGUCGGGAACGAACGCAGCCAGCGGGCAUCUGUGCGUGCGAGGAG,0.512
UAUUAAGAUCAUUACUGCAUGUGCCCUAAAAACCCAAGUUUUCUAUUCCCUUAGGACAGAAAAUUGCAUGUGAGGUGGGAUAAUCGAGUUUCAGUGACCCACGUCAGUUA,7.41
GAGCAAGAAACAAGGGCCUUAGAUGUGCCACGAAGGGCCCUUUGGUGGGCUGUGUGACAGUCGCGUGUGUCAUGAAGUGUGAAAUCUGGAGGAAGAAAAAAAAACAAGAG,0.409
CUCCAGGCUCCUCCUCCCCCUGGCAGGCCCAGCAACAUGUGCCCCAGAUCUGGAAGGGCCUCCCUCUCUGCCAGUGUUUGGGUGGGUGUCAUGGGUGUCCCCACCCACUC,0.509

# Repeated from above (sample 3):
Strand,log2 enrichment
UGGAGGAGCCAUAGAAUAUUAAGGAUGAAUUCAGGAAGGCCUGAGACCAUGGAAAACUUGCCUGCUCUCUACACUAUUUUCCAAGGAGAG,0.182
UCCUGUGCUACACAUCGUAUGUACCGAAUCGGCCCCCCGGGGCCCCCCGGGCCCCCCGGGAAAGUAUUAUGUUACGCCGUUCGGAUCUGC,-3.34
UGGACAGGUUGCUGGACCCCGCCAACAGAGCCCACCUGGGCCUGGAGGAGCAGCUGAGAGAGCUGCUGGACAUGCUCGACCUCACCUGCG,-1.31
